# Experimental data collected from several papers.
# Protocols differ between the studies behind these lines. “And” joins repeats or separate records; there may be more than shown.
# MAPK8: Mitogen-activated protein kinase 8 (MAPK8, Homo sapiens, UniProt P45983)
# Chain of UniProt P45983 (whole entry, looked up): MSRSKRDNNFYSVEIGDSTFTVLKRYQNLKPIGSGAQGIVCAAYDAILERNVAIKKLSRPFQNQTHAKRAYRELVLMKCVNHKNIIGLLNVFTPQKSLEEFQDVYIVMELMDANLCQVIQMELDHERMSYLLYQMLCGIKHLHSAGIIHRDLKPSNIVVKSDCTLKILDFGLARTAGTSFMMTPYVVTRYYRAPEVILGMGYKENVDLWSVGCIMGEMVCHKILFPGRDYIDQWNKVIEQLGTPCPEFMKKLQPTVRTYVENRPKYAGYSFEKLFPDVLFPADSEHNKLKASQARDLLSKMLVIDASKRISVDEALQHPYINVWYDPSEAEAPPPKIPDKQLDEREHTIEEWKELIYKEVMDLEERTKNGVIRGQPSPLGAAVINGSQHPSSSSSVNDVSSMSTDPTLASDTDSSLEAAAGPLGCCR
# PRMT5: Protein arginine N-methyltransferase 5 (PRMT5, Homo sapiens, UniProt O14744)
# Chain of UniProt O14744 (whole entry, looked up): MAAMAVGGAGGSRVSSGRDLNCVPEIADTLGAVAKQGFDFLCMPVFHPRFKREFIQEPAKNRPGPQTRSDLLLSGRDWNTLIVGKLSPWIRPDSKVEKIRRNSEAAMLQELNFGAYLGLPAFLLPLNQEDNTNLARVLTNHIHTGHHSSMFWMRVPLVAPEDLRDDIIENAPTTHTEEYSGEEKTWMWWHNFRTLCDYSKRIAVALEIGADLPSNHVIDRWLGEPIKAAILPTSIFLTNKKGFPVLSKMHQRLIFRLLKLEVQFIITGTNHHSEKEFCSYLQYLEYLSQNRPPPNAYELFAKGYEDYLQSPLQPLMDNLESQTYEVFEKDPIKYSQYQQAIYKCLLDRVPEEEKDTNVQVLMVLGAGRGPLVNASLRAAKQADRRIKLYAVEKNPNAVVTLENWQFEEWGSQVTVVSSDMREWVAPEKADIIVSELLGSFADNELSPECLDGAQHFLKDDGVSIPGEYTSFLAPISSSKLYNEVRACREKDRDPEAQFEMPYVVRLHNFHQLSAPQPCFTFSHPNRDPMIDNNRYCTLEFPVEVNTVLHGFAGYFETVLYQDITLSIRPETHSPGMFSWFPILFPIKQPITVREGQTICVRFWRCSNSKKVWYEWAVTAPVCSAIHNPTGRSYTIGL
# GBA2: Beta-glucosidase (GBA2, Homo sapiens, UniProt Q9HCG7)
# Chain of UniProt Q9HCG7 (whole entry, looked up): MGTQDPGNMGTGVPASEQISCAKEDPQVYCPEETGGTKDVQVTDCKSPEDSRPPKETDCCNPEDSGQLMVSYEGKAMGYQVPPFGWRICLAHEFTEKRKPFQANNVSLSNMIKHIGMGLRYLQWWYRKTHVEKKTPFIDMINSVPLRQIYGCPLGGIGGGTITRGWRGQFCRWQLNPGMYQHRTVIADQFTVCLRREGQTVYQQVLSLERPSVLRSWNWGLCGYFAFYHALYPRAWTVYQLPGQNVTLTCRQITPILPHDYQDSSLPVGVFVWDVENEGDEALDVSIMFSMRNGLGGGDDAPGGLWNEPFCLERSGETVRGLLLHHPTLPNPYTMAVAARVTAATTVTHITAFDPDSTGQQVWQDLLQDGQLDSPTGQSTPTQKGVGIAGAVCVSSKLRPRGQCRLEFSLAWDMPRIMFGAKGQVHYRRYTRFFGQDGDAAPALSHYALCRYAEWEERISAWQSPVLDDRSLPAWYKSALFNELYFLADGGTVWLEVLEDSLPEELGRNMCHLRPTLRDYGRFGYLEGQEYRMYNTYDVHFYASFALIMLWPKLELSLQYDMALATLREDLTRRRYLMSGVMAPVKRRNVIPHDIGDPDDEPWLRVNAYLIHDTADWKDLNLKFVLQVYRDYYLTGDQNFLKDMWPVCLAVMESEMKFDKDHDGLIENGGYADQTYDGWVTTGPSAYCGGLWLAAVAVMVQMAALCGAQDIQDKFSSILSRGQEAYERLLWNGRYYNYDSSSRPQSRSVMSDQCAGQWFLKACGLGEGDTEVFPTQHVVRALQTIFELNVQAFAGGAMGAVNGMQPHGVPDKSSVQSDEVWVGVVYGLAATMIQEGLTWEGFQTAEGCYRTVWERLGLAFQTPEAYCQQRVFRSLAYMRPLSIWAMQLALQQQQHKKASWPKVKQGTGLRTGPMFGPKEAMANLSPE
# IL1RL2: Interleukin-1 receptor-like 2 (IL1RL2, Homo sapiens, UniProt Q9HB29)
# Chain of UniProt P30771 (whole entry, looked up): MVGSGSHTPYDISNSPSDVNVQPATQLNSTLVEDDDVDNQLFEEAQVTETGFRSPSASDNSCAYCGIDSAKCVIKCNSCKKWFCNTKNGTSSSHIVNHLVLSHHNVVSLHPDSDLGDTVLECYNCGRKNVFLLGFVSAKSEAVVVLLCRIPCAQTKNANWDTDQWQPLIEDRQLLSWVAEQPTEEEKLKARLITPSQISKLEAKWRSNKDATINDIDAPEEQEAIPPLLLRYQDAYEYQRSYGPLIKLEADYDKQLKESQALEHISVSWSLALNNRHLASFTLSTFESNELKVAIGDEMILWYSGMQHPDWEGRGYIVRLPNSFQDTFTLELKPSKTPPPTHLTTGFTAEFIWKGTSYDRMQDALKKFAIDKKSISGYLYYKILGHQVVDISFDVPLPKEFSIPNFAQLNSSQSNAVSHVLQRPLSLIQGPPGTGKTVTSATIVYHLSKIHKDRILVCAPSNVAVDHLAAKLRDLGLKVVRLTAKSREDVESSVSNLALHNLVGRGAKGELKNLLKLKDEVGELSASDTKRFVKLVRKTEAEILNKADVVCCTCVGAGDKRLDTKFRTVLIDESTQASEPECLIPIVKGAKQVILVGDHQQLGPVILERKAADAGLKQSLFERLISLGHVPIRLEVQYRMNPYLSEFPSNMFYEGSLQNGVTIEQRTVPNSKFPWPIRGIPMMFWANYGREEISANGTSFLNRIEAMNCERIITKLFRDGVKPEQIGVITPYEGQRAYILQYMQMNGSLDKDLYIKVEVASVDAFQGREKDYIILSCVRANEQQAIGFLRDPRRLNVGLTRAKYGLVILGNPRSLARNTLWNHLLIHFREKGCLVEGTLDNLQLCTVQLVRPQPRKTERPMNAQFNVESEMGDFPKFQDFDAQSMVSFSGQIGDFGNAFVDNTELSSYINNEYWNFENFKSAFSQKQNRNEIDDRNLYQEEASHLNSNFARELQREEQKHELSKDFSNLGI
# Chain of UniProt Q9HB29 (whole entry, looked up): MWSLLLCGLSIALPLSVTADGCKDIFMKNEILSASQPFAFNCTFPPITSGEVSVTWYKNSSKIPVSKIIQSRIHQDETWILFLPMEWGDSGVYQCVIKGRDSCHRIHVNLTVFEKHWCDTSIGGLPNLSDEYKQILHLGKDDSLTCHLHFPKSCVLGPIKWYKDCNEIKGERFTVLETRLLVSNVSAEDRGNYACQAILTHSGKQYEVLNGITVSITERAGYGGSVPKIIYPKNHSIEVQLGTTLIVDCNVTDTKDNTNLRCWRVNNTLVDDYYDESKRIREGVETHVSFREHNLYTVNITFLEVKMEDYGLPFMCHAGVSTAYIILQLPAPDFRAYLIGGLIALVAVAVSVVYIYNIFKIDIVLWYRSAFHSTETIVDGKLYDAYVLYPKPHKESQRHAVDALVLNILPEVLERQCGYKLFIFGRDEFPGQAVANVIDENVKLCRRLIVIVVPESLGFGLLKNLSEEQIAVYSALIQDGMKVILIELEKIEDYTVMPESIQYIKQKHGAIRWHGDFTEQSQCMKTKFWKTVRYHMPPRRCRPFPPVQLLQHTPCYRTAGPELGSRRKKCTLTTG
# Chain of UniProt Q8TBX8 (whole entry, unmodified, looked up): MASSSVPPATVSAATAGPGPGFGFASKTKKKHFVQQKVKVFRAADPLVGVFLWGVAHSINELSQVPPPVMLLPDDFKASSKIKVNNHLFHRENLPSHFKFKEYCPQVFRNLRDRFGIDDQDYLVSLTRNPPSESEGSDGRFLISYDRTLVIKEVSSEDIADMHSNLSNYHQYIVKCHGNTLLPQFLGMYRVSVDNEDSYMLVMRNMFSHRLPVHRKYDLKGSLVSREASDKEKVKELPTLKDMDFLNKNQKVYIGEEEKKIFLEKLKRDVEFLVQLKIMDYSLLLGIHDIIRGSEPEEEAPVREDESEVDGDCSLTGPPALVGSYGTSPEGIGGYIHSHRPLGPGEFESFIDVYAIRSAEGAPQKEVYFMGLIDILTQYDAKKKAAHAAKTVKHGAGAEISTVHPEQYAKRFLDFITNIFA
# Chain of UniProt Q63531 (whole entry, looked up): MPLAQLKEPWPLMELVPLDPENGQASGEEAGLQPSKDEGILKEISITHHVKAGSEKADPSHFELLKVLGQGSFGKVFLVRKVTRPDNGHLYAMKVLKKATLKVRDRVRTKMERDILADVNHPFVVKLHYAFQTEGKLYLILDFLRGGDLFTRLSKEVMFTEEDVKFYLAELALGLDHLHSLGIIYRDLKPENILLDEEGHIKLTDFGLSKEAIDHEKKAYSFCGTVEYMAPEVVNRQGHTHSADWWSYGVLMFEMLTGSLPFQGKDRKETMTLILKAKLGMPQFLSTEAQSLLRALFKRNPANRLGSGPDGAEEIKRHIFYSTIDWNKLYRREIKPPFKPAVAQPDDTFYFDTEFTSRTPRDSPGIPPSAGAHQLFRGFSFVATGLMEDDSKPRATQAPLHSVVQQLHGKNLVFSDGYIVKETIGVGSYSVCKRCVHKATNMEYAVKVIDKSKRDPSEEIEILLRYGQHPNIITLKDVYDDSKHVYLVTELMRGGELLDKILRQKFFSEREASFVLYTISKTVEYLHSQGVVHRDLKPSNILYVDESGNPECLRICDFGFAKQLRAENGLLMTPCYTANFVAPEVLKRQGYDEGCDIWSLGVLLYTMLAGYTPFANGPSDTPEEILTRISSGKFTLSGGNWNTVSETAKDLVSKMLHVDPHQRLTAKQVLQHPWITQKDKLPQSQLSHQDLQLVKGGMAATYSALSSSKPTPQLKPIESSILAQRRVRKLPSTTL
Structure (SMILES),target or system,assay,test system,conditions,scale,endpoint,value
COC(=O)[C@@]1(C)C=C(C(=O)Nc2cccc(C(=O)Nc3ccc(Nc4nccc(-c5cccnc5)n4)c(C)c3)c2)C(=O)CC1,MAPK8,"enzyme activity, inhibitor",,"4.938 µM, 18 h, unit not given, with: GSH 10 mM pre-incubation",reference: vehicle,remaining activity,0.0389
N=C(N)c1ccc(-c2ccc(-c3cccc(C(=N)N)c3)o2)cc1,PRMT5,"enzyme activity, inhibitor, radiometric",,20 µM,,remaining activity,68.6%
COc1ccccc1-c1ccc(COCCCCCN2C[C@H](O)[C@@H](O)[C@H](O)[C@H]2CO)cc1,GBA2,"inhibitor, 4MU-β-D-glucopyranoside",HEK293T homogenates overexpressing GBA2,,reference: GBA1 IC50 over GBA2 IC50,selectivity ratio,200
N=C(N)c1ccc(-c2ccc(-c3ccc(C(N)=O)cc3)o2)cc1,PRMT5,"enzyme activity, inhibitor, radiometric",,20 µM,,remaining activity,81.6%
COc1ccccc1-c1ccncc1C(=O)Nc1nnc(OCc2ccc(Cl)cc2)s1,"DNA polymerase theta, helicase domain (POLQ, Homo sapiens, UniProt O75417)","ATPase activity, ADP-Glo",,0.015 µM,reference: 0 µM cpd,remaining activity,56%
N#Cc1cnc2sc(C(=O)O)cc2c1N1CCc2[nH]nc(C(=O)N[C@@H](CC(=O)NCCOCCN3CCOCC3)c3cccc(Br)c3)c2C1,IL1RL2,"SEAP reporter gene, antagonist",HEK-Blue IL-36R cells,"0.41 µM, 6 h, with: IL-36β 0.003 ng/mL",reference: untreated,remaining activity,104%
COC(=O)c1cc2cc3c(cc2oc1=O)N(CC(=O)NC(Cc1ccc(C)cc1)C(=O)NCC=CS(=O)(=O)c1ccccc1)CCC3 (stereo not drawn),"Cathepsin B (CTSB, Homo sapiens, UniProt P07858)",inhibitor,,"5 µM, 60 min, with: Z-Arg-Arg-pNA",reference: uninhibited control,remaining activity,22%
N=C(NC1CCCC1)c1ccc(-c2ccc(-c3ccc(C(=N)NC4CCCC4)cc3)o2)cc1,PRMT5,"enzyme activity, inhibitor, radiometric",,20 µM,,remaining activity,44.3%
COc1cc(Nc2nc(C)cc(-c3cnn4nc(OC)ccc34)n2)cc(C(F)(F)F)c1,"PIP4K2C (Homo sapiens, UniProt Q8TBX8)",inhibitor,,"1 µM, PIP5K2C",reference: control,remaining activity,100%
COc1ccc(NC(=O)Nc2ccc3c(c2)C(=O)N(C(C)CO)CC(C)C(CN(C)Cc2ccc4c(c2)OCO4)O3)cc1 (stereo not drawn),"Rps6ka1 (Rattus norvegicus, UniProt Q63531)","kinase activity, KinaseProfiler",,"0.03 µM, species rat",reference: control,remaining activity,104%
CNC(=N)c1ccc(-c2ccc(-c3ccc(C(=N)NC)cc3)o2)cc1,PRMT5,"enzyme activity, inhibitor, radiometric",,20 µM,,remaining activity,53.7%
COC1CN([C@H]2CC[C@H]([C@@]3(C)Oc4c(Cl)cc(C(=O)NCc5c(SC)cc(C)[nH]c5=O)c(C)c4O3)CC2)C1,,"RNA-seq, measured: PCGF2","human, whole blood","dose not given, 24 h",reference: pretreatment baseline,log2 fold change,2.33
N=C(N)c1ccc(-c2cncc(-c3ccc(C(=N)N)cc3)n2)cc1,PRMT5,"enzyme activity, inhibitor, radiometric",,20 µM,,remaining activity,52.4%
C=C1C[C@@]2(C(=O)OC)C=C(C(=O)Nc3cccc(C(=O)Nc4ccc(Nc5nccc(-c6cccnc6)n5)c(C)c4)c3)C(=O)[C@@H]1C2,MAPK8,"kinase activity, inhibitor",,"0.0007527 µM, unit not given, with: 10 mM glutathione",reference: no inhibitor,remaining activity,0.987
O=C=[N][Ru-4]123([n]4c5ccc(O)cc5c5c6c(c7cc(F)c[n+]1c7c54)C(=O)NC6=O)[S+]1CC[S+]2CC[S+]3CC1 (stereo not drawn),"RET (Homo sapiens, UniProt P07949)",enzyme activity,,"100 nM, human enzyme, with: 10 µM ATP",reference: untreated,remaining activity,45%
CC(C)[C@@H]1NC(=O)[C@H](Cc2ccccc2)NC(=O)CSC[C@@H](C(N)=O)NC(=O)[C@H](CCC(=O)O)NC(=O)[C@H](CO)NC(=O)[C@H](Cc2c[nH]c3cccc(Cl)c23)NC(=O)[C@H](C2CCCCC2)NC(=O)[C@H](C(C)C)NC(=O)[C@H](Cc2ccc(O)cc2)NC(=O)[C@H](CC(=O)O)NC(=O)[C@H](Cc2c[nH]c3ccccc23)NC(=O)[C@H](Cc2ccc(N)nc2)NC(=O)[C@H](Cc2c[nH]c3ccc(Cl)cc23)NC(=O)[C@H](CCC(=O)O)NC1=O,IL1RL2,"reporter gene (SEAP), inhibitor, HEK-Blue IL-36R reporter",HEK-Blue IL-36R cells,"0.046 µM, 6 h, with: IL-36γ 10 ng/mL",,remaining activity,101%
CCCCCCN1C[C@H](O)[C@@H](O)[C@H](O)[C@@H]1CO,GBA2,"inhibitor, 4MU-β-D-glucopyranoside",HEK293T homogenates overexpressing GBA2,,reference: GBA1 IC50 over GBA2 IC50,selectivity ratio,7140
CN(C)S(=O)(=O)c1ccc(S(=O)(=O)N2CCC(n3c(=O)[nH]c4ccccc43)CC2)cc1,"ATP-dependent helicase NAM7, helicase domain (NAM7, Saccharomyces cerevisiae, UniProt P30771)","ATPase activity, BIOMOL Green",,concentration not given,,remaining activity,89% and 95% and 100% and 99% and 98% and 90%
COC(=O)c1ccc2c(c1)nc(NC(=O)c1ccccc1)n2CCCc1ccccc1,"HDAC2 (Homo sapiens, UniProt Q92769)","enzyme activity, inhibitor",,10 µM,,remaining activity,85%
CN(Cc1cc(C2CC2)on1)C(=O)c1cccc(-c2ccc3c(c2)CCO3)c1,"Acetyl-CoA synthetase (Cryptococcus neoformans, UniProt J9VFT1)","enzyme activity, inhibitor, coupled pyrophosphate",,488 nM,,remaining activity,106% and 94.1%
N=C(N)c1ccc(-c2ccc(C(=N)N)s2)cc1,PRMT5,"enzyme activity, inhibitor, radiometric",,20 µM,,remaining activity,53%

# Repeated from above:
Structure (SMILES),target or system,assay,test system,conditions,scale,endpoint,value
N=C(N)c1ccc(-c2ccc(-c3ccc(C(N)=O)cc3)o2)cc1,PRMT5,"enzyme activity, inhibitor, radiometric",,20 µM,,remaining activity,81.6%
